Measurements collected from several papers.
Parts stem from different laboratories: compare values within a part only.

Block 1 — observed: enzyme activity; mode: inhibitor; tested at: 20 µM
Target: Replicase polyprotein 1ab, polymerase (rep, Severe acute respiratory syndrome coronavirus 2, UniProt P0DTD1)
| SMILES | inhibition [%] |
| --- | --- |
| c1ccc2c(c1)[I+]c1ccccc1-2 | 15.6 |
| O=C(CSc1nc2c(c(=O)n1-c1ccccc1)SCC2)Nc1ccc(-c2ccccc2)cn1 | 2.03 |
| CC(=O)NC[C@H]1CN(c2ccc(N3CCN(C(=O)CO)CC3)c(F)c2)C(=O)O1 | -3.53 |
| CCCNC(C)(C)COC(=O)c1ccccc1 | -1.88 |
| Cc1cc(/C=C/C#N)cc(C)c1Nc1ccnc(Nc2ccc(C#N)cc2)n1 | 1.14 |
| CC[N+](C)(CC)CCC[n+]1c(-c2ccccc2)c2cc(N)ccc2c2ccc(N)cc21 | 102 |
| N#CN=C(NCCCCCCOc1ccc(Cl)cc1)Nc1ccncc1 | 1.53 |
| COc1cc(C(=O)NS(=O)(=O)c2ccccc2C)ccc1Cc1cn(C)c2ccc(NC(=O)OC3CCCC3)cc12 | 33 |
| COc1ccc(CC2NCCc3c2[nH]c2ccc(C)cc32)c(Cl)c1OC (stereo not drawn) | 0.5 |
| C[Se]CC[C@H](N)C(=O)O | -0.65 |
| O=C(O)CCCCCCNC1c2ccccc2CCc2ccccc21 | -9.35 |
| O=[N+]([O-])c1nccn1CC(O)CN1CCCCC1 (stereo not drawn) | -0.15 |
| O=C(O)Cc1ccc2c(c1)C(=O)c1ccccc1CO2 | 2.48 |
| CN(C)CCOC(c1ccc(Cl)cc1)c1ccccn1 (stereo not drawn) | -1.04 |
| O=C(O)[C@H](O)[C@H](O)[C@@H](O)[C@H](O)[C@H](O)CO | -2.8 |
| O=C1CNC(=O)CN1 | -3.21 |
| Cc1noc(C)c1-c1ccc(-c2cc(C(N)=O)c(NC(N)=O)s2)c(O[C@H]2CCNC2)c1 | 12.8 |
| COc1ccc2c(Oc3ccc(NC(=O)c4c(C)n(CC(C)(C)O)n(-c5ccccc5)c4=O)nc3)ccnc2c1 | 15.8 |
| C[C@H]1[C@H](NC(=O)/C(=N\OC(C)(C)C(=O)O)c2csc(N)n2)C(=O)N1S(=O)(=O)O | -1.45 |
| COc1ccc(Cl)cc1C(=O)NCCc1ccc(C(=O)O)cc1 | 2.72 |
| Cc1nc2ccccn2c(=O)c1CCN1CCC(C(=O)c2ccc(F)cc2)CC1 | -0.92 |
| NC[C@@H](CC(=O)O)c1ccccc1 | -1.36 |
| CC(C)N(CCCCOCC(=O)NS(C)(=O)=O)c1cnc(-c2ccccc2)c(-c2ccccc2)n1 | -2.14 |
| CN(CCOc1ccc(C[C@H](Nc2ccccc2C(=O)c2ccccc2)C(=O)O)cc1)c1ccccn1 | -0.47 |
| CC(=O)N(O)[C@@H]1c2cc(C#N)ccc2OC(C)(C)[C@H]1O | -2.21 |

Block 2 — cell line: HEK-293T; observed: pseudovirus infection; technique: FDA-approved drug library screen; organism: VSV pseudotyped with SARS-CoV-2 spike; tested at: 10 µM; time: 16 h; baseline: vehicle-treated
| Structure (SMILES) | GFP-positive cells [%] |
| --- | --- |
| COCCCOc1cc(C[C@@H](C[C@H](N)[C@@H](O)C[C@H](C(=O)NCC(C)(C)C(N)=O)C(C)C)C(C)C)ccc1OC | 60.6 |
| COCC(=O)Nc1c(I)c(C(=O)NCC(O)CO)c(I)c(C(=O)N(C)CC(O)CO)c1I (stereo not drawn) | 103 |
| CN1C2CCCC1CC(NC(=O)c1nn(C)c3ccccc13)C2 (stereo not drawn) | 90 |

Block 3 — observed: enzyme activity; mode: inhibitor; tested at: 20 µM; setting: hit confirmation, with DTT
Target: Replicase polyprotein 1ab, main protease (rep, Severe acute respiratory syndrome coronavirus 2, UniProt P0DTD1)
| SMILES | inhibition [%] |
| --- | --- |
| O=C(NCCCNc1nc(Nc2cccc(NC(=O)N3CCCC3)c2)ncc1I)c1cccs1 | -23.3 |
| CCn1c(-c2nonc2N)nc2cnc(Oc3cccc(NC(=O)c4ccc(OCCN5CCOCC5)cc4)c3)cc21 | -11.9 |
| Oc1cc2c(cc1O)CN(C(=S)NCCc1ccc(Cl)cc1)CCC2 | -8.7 |
| C=C1C(=O)O[C@H]2[C@H]1CC/C(C)=C/CC[C@@]1(C)O[C@@H]21 | 89.5 |
| CCN(CC)C(=S)S | 60.6 |

Block 4 — technique: protein-binding microarray; molecule type: double-stranded DNA, one strand shown; medium: in vitro; tested at: not given; reading: higher = stronger binding
Target: Hepatocyte nuclear factor 3-beta, forkhead domain (FOXA2, Homo sapiens, UniProt Q9Y261, residues 142-269)
Setting: k-mer, scored over probes, only values ≥0.25
Residues (chain): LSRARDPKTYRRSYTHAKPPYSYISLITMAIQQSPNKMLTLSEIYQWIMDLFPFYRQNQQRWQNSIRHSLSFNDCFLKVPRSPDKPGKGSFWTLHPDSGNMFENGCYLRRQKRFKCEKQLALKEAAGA
| Oligonucleotide | E-score |
| --- | --- |
| AATGAATG | 0.258 |
| AATGTGGG | 0.264 |
| ACAAATTA | 0.276 |
| TAGTCACA | 0.252 |
| GTAATTCA | 0.276 |
| AACAACAA | 0.353 |
| ATATTTCG | 0.296 |
| CATAATAG | 0.258 |

Block 5 — technique: protein-binding microarray; molecule type: double-stranded DNA, one strand shown; medium: in vitro; tested at: 940 nM top; setting: 60-bp whole probe; added: salmon DNA 0.4 mg/ml; baseline: random background probes; reading: higher = stronger binding; shared flanks, not repeated: GCCTAGCAC … GTCTTGATTCGCTTGACGCTGCTG
Target: Interferon regulatory factor 5, full length, phosphomimetic (IRF5, Homo sapiens, UniProt Q13568-2, residues 1-514, S451D/S453D/S456D/S462D)
| Oligonucleotide | fitted relative affinity |
| --- | --- |
| GGTCCCACCTCTTGGTGGGAGTGCTAG | -0.632 z-score |
| GACTAACTGAGTATCGAGACGTGCTAG | 1.75 z-score |
| GACCGTATCGACACTGGGGACGTGCTA | 1.69 z-score |
| GACGATATCAGTTTCGAAACGTGCTAG | 5.09 z-score |
| TTACGTTTCGGGTATCGGTTAGTGCTA | 7.6 z-score |
| TTAGATATCGGTTATCGATTAGTGCTA | 1.3 z-score |
| TTAGATATCAGTCGCGATTAGTGCTAG | 0.384 z-score |
| CGAGTTTCCATTTTCTGAATGTGCTAG | 2.66 z-score |

Block 6 — technique: protein binding microarray; molecule type: double-stranded DNA, one strand shown; medium: in vitro; tested at: not given; baseline: not given; reading: higher = stronger binding
Target: Histone acetyltransferase KAT6A, both winged helices, GST fusion (KAT6A, Homo sapiens, UniProt Q92794, residues 1-181)
Setting: 8-mer, flanks averaged, mean of 2 arrays, mostly near background
Construct (chain): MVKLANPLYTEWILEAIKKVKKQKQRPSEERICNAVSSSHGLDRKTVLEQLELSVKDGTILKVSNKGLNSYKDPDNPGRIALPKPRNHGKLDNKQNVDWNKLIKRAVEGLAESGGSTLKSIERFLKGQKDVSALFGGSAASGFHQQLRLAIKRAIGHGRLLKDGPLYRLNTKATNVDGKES
| Oligonucleotide | E-score |
| --- | --- |
| AAAAATGG | -0.135 |
| ATAGGCGA | -0.0206 |
| CATGTCCA | -0.00761 |
| GAGTCTAC | 0.00038 |
| GGCGGATA | 0.232 |
| ATGGTACC | -0.0114 |
| ATCAGGGG | -0.211 |
| AAGGAGGA | -0.126 |
